Measured values of several laboratories.
± gives the spread as reported.
UniProt Q96CP6, sequence (whole entry, looked up): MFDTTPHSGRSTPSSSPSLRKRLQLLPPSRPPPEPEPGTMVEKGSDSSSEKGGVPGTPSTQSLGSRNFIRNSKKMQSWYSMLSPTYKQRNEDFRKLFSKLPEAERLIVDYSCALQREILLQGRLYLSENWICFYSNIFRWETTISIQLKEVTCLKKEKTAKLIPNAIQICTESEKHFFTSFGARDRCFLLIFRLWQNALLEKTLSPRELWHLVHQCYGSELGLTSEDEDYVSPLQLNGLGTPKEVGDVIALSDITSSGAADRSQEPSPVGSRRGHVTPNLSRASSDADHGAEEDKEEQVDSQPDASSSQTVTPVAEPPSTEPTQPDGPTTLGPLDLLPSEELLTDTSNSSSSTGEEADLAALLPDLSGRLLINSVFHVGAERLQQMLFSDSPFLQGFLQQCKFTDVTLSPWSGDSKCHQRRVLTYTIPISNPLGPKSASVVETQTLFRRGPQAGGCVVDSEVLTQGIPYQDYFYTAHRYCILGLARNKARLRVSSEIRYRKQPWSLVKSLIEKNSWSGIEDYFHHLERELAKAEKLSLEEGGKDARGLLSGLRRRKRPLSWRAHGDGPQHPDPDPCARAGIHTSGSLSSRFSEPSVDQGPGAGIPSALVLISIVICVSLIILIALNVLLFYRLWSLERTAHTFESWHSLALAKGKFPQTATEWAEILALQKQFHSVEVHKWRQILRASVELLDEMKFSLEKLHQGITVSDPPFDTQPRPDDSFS
UniProt P34972, sequence (whole entry, looked up): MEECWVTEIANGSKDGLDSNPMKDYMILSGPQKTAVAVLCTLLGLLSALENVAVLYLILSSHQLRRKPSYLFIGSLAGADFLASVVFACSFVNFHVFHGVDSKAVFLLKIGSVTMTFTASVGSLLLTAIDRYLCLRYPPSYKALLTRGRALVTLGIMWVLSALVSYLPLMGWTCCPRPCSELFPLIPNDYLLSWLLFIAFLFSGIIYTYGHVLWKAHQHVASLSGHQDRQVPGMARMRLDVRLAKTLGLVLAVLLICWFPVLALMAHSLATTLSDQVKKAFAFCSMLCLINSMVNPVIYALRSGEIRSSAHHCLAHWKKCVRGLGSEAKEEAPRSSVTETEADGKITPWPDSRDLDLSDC

CC(C)C[C@H](NC(=O)[C@H](CCCCN)NC(=O)OCC1c2ccccc2-c2ccccc21)C(=O)N[C@H](C(=O)N[C@@H](Cc1ccccc1)C(=O)N[C@@H](Cc1ccccc1)C(=O)N[C@@H](CCCCN)C(=O)NCC(=O)N[C@@H](Cc1ccccc1)C(=O)N[C@@H](C)C(=O)N[C@@H](Cc1c[nH]c2ccccc12)C(=O)N[C@@H](CC(N)=O)C(=O)N[C@H](C(=O)N[C@H]1CSSC[C@@H](C(=O)N[C@@H](Cc2c[nH]cn2)C(=O)N[C@@H](CCCNC(=N)N)C(=O)N[C@@H](CCCNC(=N)N)C(=O)N[C@@H](C)C(=O)N[C@@H](CC(N)=O)C(N)=O)NC(=O)[C@H](C(C)C)NC(=O)[C@H](CCCNC(=N)N)NC(=O)[C@H](C(C)C)NC(=O)CNC(=O)[C@H](CC(N)=O)NC(=O)[C@H](CCCNC(=N)N)NC(=O)[C@H](Cc2ccc(O)cc2)NC(=O)[C@H](C(C)C)NC1=O)C(C)C)C(C)C — secondary structure content (circular dichroism, refers to: Parallel; PBS; 80 µM, pH 7.4, together with: LPS 1 µM): 3.48%
CCN(CCO)CCCC(C)Nc1ccnc2cc(Cl)ccc12 (stereo not drawn) — patients with adverse event (refers to: Bicarbonate grade 1; newly diagnosed glioblastoma patients; oral, 800 mg/dose, with radiotherapy and temozolomide): 33%
C[C@]1(CO)Cc2ncn(-c3ccc(C#N)c(Cl)c3)c2C(=O)O1 — drug-related urine abnormality (human; 10 mg, European food-effect part, fed): 0%
COc1ccc2nc3cc(Cl)ccc3c(Nc3cc(CN4CCCC4)c(O)c(CN4CCCC4)c3)c2n1 — haemoglobin (mouse, blood; oral, 57 mg/kg, tolerability, mean): 109 g/L
CCS(=O)(=O)Nc1ccc(Oc2ccc(F)cc2F)c(-c2cn(C)c(=O)c3[nH]ccc23)c1 — treatment-emergent adverse events (fatal myocardial infarction; human, relapsed/refractory AML; oral, dose not given): 5%
CC[C@H](C)[C@H](NC(=O)[C@H](Cc1ccccc1)NC(=O)[C@H](CCC(=O)O)NC(=O)[C@H](CCCNC(=N)N)NC(=O)[C@H](C)NC(=O)[C@H](C)NC(=O)[C@H](CCC(N)=O)NC(=O)[C@H](CCC(=O)O)NC(=O)[C@H](CCC(=O)O)NC(=O)[C@H](CC(C)C)NC(=O)[C@H](Cc1ccc(O)cc1)NC(=O)[C@H](CO)NC(=O)[C@H](CO)NC(=O)[C@@H](NC(=O)[C@H](CC(=O)O)NC(=O)[C@H](CO)NC(=O)[C@@H](NC(=O)[C@H](Cc1ccccc1)NC(=O)[C@@H](NC(=O)CNC(=O)[C@H](CCC(=O)O)NC(=O)[C@H](C)NC(=O)CCc1c[nH]cn1)[C@@H](C)O)[C@@H](C)O)C(C)C)C(=O)N[C@@H](C)C(=O)N[C@@H](Cc1c[nH]c2ccccc12)C(=O)N[C@@H](CC(C)C)C(=O)N[C@H](C(=O)N[C@@H](CCCNC(=N)N)C(=O)NCC(=O)N[C@@H](CCCNC(=N)N)C(=O)N[C@@H](CCCCNC(=O)COCCOCCNC(=O)COCCOCCNC(=O)CC[C@H](NC(=O)CCCCCCCCCCCCCCCCC(=O)O)C(=O)O)C(=O)NCC(=O)NCC(=O)N[C@@H](CO)C(=O)N[C@@H](CCCCNc1c(NCCCCCN(O)C(=O)CCC(=O)NCCCCCN(O)C(=O)CCC(=O)NCCCCCN(O)C(C)=O)c(=O)c1=O)C(=O)O)C(C)C [zirconium-89 labelled] — tissue uptake (rat, duodenum; sc, 3 nmol/kg, 4 h, ex vivo): 0.15 %ID/g
Oc1ccc(CSCc2ccc(O)cc2)cc1 — body weight (ICR mice male; oral, 3000 mg/kg, day 15, acute toxicity): 37.2 ± 1.09 g
COc1cc2c(Oc3ccc4[nH]c(C)cc4c3F)ccnc2cc1OCC1(N)CC1 — Tinnitus incidence (paediatric refractory sarcoma patients; 12 mg): 18.2%
COc1cccc(-c2nsc(=O)o2)c1 — hydrolysis half-life (RPMI medium; concentration not given, 37 °C, spontaneous hydrolysis): 43.6 min
CNC(=O)c1cc(Cl)c(OC(C)(C)C(=O)O)cc1OC[C@@H](O)CN1CCC2(CC1)Cc1cc(Cl)ccc1O2 — lung deposited fraction (human; inhaled): 0.66
CC[C@H](C)[C@@H]([C@@H](CC(=O)N1CCC[C@H]1[C@H](OC)[C@@H](C)C(=O)N[C@@H](Cc1ccccc1)C(=O)O)OC)N(C)C(=O)[C@@H](NC(=O)[C@H](C(C)C)N(C)C)C(C)C — excreted in feces (refers to: compound-HPA; Sprague Dawley rat, feces; intravenous, dose not given, 120 h, dosed as NaPi2b ADC, recovery-corrected; relative to: payload dose): 25.4%
C[C@H]1CN(c2n[nH]c3nc(N[C@H]4CC[C@H](NS(=O)(=O)CCC(F)(F)F)CC4)ncc23)CCO1 — remaining binding (Protein Aster-A (Homo sapiens, UniProt Q96CP6); Kinobeads competition, refers to: GRAMD1A; 0.16 µM, unit not given; relative to: vehicle): 1.74
COc1cc(Nc2ncc(F)c(Nc3ccc4c(n3)NC(=O)C(C)(C)O4)n2)cc(OC)c1OC — IC50 (CNR2 (Homo sapiens, UniProt P34972)): > 10 µM
COc1ccc(N2C(=O)N(c3c(C)cccc3Cl)Cc3cnc(Nc4ccc(C5CCN(C)CC5)cc4OC)nc32)nc1 — inhibition (DYRK1B (Homo sapiens, UniProt Q9Y463); kinase activity; 0.5 µM): 2.38%
CC[C@H](C)[C@@H]1NC(=O)[C@@H]2CCCN2C(=O)[C@H](CC(C)C)NC(=O)[C@H](CC(C)C)NC(=O)CNC(=O)[C@@H](NC(=O)[C@@H](NC(=O)[C@H](CC(=O)O)NC(=O)CNC(=O)[C@@H](NC(=O)[C@H](C)NC(=O)CNC(=O)[C@H](CCCCN)NC(=O)[C@H](CC(C)C)NC(=O)[C@H](CC(C)C)NC(=O)[C@H](CCCCN)NC(=O)CNC(=O)[C@@H](NC(=O)[C@@H](N)CC(C)C)C(C)C)C(C)C)C(C)C)CSSC[C@@H](C(=O)O)NC1=O — log2 fold change (RNA-seq, refers to: Pnmt mRNA; mouse traumatic brain injury, frontal cortex and hippocampus; dose not given; relative to: TBI plus compound vs TBI): -3.57
COc1ncccc1-c1cnn2ccc(N3CCN(C(=O)OC(C)C)CC3)nc12 — drug concentration (mouse nerve ligation model, brain; oral, 10 mg/kg, 30 min after last dose, repeat dosing day 2): 8.9 µM
O=C1c2c(O)c(=O)ccn2N([C@@H]2c3ccccc3SCc3c2ccc(F)c3F)[C@@H]2COCCN12 — trough concentration (BALB/c mouse; subcutaneous, 8 mg/kg q24h): 9.52 ng/mL
CC1(C)[C@H](C(=O)OCc2cccc(Oc3ccccc3)c2)[C@@H]1C=C(Cl)Cl — enzyme contribution to clearance (refers to: CYP3A5; human, age 6 months, recombinant human CYP3A5; 0.1 µM): 0.14%
CO[C@H]1C[C@@H]2CC[C@@H](C)[C@@](O)(O2)C(=O)C(=O)N2CCCC[C@H]2C(=O)O[C@H]([C@H](C)C[C@@H]2CC[C@@H](OC(=O)NCCOCCOCCOCCOCCOCCOCCOCCOCCC(=O)N3CCc4cc(Cn5nc(-c6ccc7oc(N)nc7c6)c6c(N)ncnc65)ccc4C3)[C@H](OC)C2)C[C@@H](O)[C@H](C)/C=C(\C)[C@@H](O)[C@@H](OC)C(=O)[C@H](C)C[C@H](C)/C=C/C=C/C=C/1C — dose-reducing adverse events (phase 1 dose escalation, refers to: mucositis; advanced solid tumour patients; intravenous, 16 mg weekly, grade ≥3): 0%
CC(=O)N1CCC(C(=O)N2CCN3C(=O)c4cc(-c5ccccc5)ccc4NC(=O)C3C2)CC1 (stereo not drawn) — revertants per plate (Salmonella typhimurium; TA1535; 5000 µg/plate, together with: rat liver S9): 15.5
O=C(Nc1ccccc1)C1CCN(C(=O)Oc2cccnc2)CC1 — change in Interested-Bored score (Bond-Lader VAS; healthy women; oral, 60 mg; relative to: pre-dose baseline, direction not given): -8.2
O=c1cc(-c2ccc(O)c(O)c2)oc2cc(O)cc(O)c12 — faecal excreted amount (male Sprague-Dawley rat, obese; oral, 100 mg/kg of neohesperidin, 12 to 24 h): 102 ± 56.5 ng
CC1CCCN(CCCNC(=O)c2cc(Sc3ccc(F)cc3)nc3ccccc23)C1 (stereo not drawn) — maximum response (Vero-E6; CellTiter-Glo ATP; 72 h, retest 8-point duplicates; relative to: DMSO 0%, hyamine -100%, more negative, more toxic): -1.86%
CN1CC[C@@H](c2c(O)cc(O)c3c(=O)cc(-c4ccc(C(F)(F)F)cc4Cl)oc23)[C@@H]1CO — patients with adverse event (refers to: Hypertension; B-cell malignancies; oral, 100 mg, intermittent dosing): 0%
Nc1ncnc2c1ncn2[C@@H]1O[C@@H]2COP(=O)([S-])O[C@@H]3[C@H](O)[C@@H](COP([O-])(=S)O[C@H]2[C@H]1O)O[C@H]3n1cnc2c(N)ncnc21.[Na+].[Na+] (stereo partly drawn) — GGT (non-tumor-bearing mice, serum; intravenous, 1 mg/kg, toxicity study): 0.075 ± 0.09 U/L
O=[N+]([O-])c1cc2c3c(ccc2c2ccccc12)[C@@H](O)[C@H](O)C=C3 — tumour incidence (female Sprague-Dawley rat, mammary gland; intramammary, dose not given, 32 wk, palpable mammary tumours at necropsy): 46%
O=c1nc(NO)ccn1[C@@H]1O[C@H](CO)[C@@H](O)[C@H]1O — bench-top stability (rat amniotic fluid dialysate; 25 ng/mL, 6 h, room temperature, low concentration, together with: molnupiravir 5 ng/mL): 98.07 ± 0.86%
COc1ncnn2ccc(-c3cnc4nc(C)n(Cc5nnc([C@@H](C)F)o5)c4c3)c12 — incidence of nail discoloration (all grades) (human patients; oral, dose not given): 14.3%
CCc1ccc(CC/C=C/c2ccc3c(c2)C(=O)CC3)cc1 — ALT serum activity (Sprague-Dawley rat, female; oral, 30 mg/kg/day, 14 days): 39.7 U/L
O=C(O)CCCOc1ccc(F)cc1-c1cc(-c2ccccc2C(F)(F)F)n(-c2ccccc2)n1 — blood chemistry (refers to: UN; Crl:CD(SD) rats, female, blood; iv, 25 µg/kg, 1 day): 13.8 ± 4.2 mg/dL
C[C@@H](c1nc(-c2ccc(C#N)cc2)cs1)[C@](O)(Cn1cncn1)c1cc(F)ccc1F — adverse event Somnolence (healthy humans; oral, dose not given, together with: midazolam): 0%
Fc1ccc([C@@H]2CCNC[C@H]2COc2ccc3c(c2)OCO3)cc1 — List of Complaints score (refers to: Dyspepsia; healthy volunteers; oral, dose not given, given -1 h relative to LSD, together with: LSD; direction not given): 0 score
Cc1ccc(C(C)Nc2nc(N3CCNCC3)nc3ccccc23)cc1 (stereo not drawn) — maximum response (Vero-E6; CellTiter-Glo ATP; 72 h, retest 8-point duplicates; relative to: DMSO 0%, hyamine -100%, more negative, more toxic): -11.1%
Oc1c(Cl)cc2c(c1Cl)Oc1cc(Cl)c(Cl)cc1O2 — final permeate concentration (ultrafiltration; cow milk whey; 100 nM nominal in whole milk): 9.09 nM
CC(=O)c1c(C)c2cnc(Nc3ccc(C4CCN(CCS(C)(=O)=O)CC4)cn3)nc2n(C2CCCC2)c1=O — Cmax (human, dose-escalation trial, plasma; oral, 50 mg twice daily, day 21, multiple doses): 111 ng/mL
C[C@@H](O)[C@@H](CO)NC(=O)[C@@H](CCCNC(=N)N)NC(=O)[C@@H]1CCCN1C(=O)[C@@H]1CSSC[C@H](NC(=O)[C@H](Cc2ccccc2)NC(=O)CN2CCN(CC(=O)O)CCN(CC(=O)O)CCN(CC(=O)O)CC2)C(=O)N[C@@H](Cc2ccc(O)cc2)C(=O)N[C@@H](Cc2ccccc2)C(=O)N[C@@H](CCC(N)=O)C(=O)N[C@@H](CC(N)=O)C(=O)N1 [gallium-68 labelled] — tissue uptake (Wistar rat, healthy, urinary bladder; intravenous, 8 MBq, 120 min, mean): 0.06 %ID/g
